Measured values from different studies.
Parts stem from different laboratories: compare values within a part only. Changes are numbered by the printed parent chain.

Sample 1 — method: aptamer microarray, sandwich; form: DNA with 2'F-ANA; matrix: in vitro; tested at: 200 nM; added: Cy3 exosite-II aptamer, 400 nM; reading: higher = stronger binding; measurement: mean fluorescence intensity; oligonucleotide: GGTTGGTGTGGTTGG
Target: Prothrombin, mature alpha-thrombin (F2, Homo sapiens, UniProt P00734)
Notes: whole 15-mer aptamer, many near background
2'F-ANA at 1 2 3 4 5 9 15: 61.1 a.u.
2'F-ANA at 2 4 5 6 9 10 11 14 15: 48.5 a.u.
2'F-ANA at 1 2 3 6 7 10 11 12 15: 119 a.u.
2'F-ANA at 1 3 4 6 7 9 11 12 13: 175 a.u.
2'F-ANA at 1 2 3 5 6 10 12 13: 47.5 a.u.
2'F-ANA at 3 4 5 6 9 10 11 12 13: 53.3 a.u.
2'F-ANA at 1 7 8 10 11: 69.7 a.u.
2'F-ANA at 1 2 3 5 7 8 9 14 15: 49 a.u.

Sample 2 — method: DHFR PCA, deep sequencing; matrix: yeast; added: (+)-ABA 0.032 µM; baseline: wild-type fitted maximum; reading: higher = stronger binding; measurement: relative binding score
Target: ABI1, truncated, D143A, DHFR fusion (Arabidopsis thaliana)
Notes: methotrexate growth selection, single substitutions
Starting sequence: PYL1, truncated, DHFR fusion (Arabidopsis thaliana); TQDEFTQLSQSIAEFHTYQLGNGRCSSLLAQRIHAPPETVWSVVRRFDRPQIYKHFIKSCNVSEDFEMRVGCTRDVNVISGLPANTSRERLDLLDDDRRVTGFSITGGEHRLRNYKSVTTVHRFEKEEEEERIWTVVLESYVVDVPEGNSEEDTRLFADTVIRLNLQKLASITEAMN
E129R: 20.5%
L94M: 5.12%
Q10E: 52.3%
T86Q: 5.89%
T154E: -4.71%

Sample 3 — method: universal PBM; form: double-stranded DNA, one strand shown; matrix: in vitro; tested at: 600 nM; reading: higher = stronger binding; measurement: E-score
Target: Sal-like protein 4, full length isoform A (SALL4, Homo sapiens, UniProt Q9UJQ4, residues 1-1053)
Chain of UniProt Q9UJQ4 (whole entry, looked up): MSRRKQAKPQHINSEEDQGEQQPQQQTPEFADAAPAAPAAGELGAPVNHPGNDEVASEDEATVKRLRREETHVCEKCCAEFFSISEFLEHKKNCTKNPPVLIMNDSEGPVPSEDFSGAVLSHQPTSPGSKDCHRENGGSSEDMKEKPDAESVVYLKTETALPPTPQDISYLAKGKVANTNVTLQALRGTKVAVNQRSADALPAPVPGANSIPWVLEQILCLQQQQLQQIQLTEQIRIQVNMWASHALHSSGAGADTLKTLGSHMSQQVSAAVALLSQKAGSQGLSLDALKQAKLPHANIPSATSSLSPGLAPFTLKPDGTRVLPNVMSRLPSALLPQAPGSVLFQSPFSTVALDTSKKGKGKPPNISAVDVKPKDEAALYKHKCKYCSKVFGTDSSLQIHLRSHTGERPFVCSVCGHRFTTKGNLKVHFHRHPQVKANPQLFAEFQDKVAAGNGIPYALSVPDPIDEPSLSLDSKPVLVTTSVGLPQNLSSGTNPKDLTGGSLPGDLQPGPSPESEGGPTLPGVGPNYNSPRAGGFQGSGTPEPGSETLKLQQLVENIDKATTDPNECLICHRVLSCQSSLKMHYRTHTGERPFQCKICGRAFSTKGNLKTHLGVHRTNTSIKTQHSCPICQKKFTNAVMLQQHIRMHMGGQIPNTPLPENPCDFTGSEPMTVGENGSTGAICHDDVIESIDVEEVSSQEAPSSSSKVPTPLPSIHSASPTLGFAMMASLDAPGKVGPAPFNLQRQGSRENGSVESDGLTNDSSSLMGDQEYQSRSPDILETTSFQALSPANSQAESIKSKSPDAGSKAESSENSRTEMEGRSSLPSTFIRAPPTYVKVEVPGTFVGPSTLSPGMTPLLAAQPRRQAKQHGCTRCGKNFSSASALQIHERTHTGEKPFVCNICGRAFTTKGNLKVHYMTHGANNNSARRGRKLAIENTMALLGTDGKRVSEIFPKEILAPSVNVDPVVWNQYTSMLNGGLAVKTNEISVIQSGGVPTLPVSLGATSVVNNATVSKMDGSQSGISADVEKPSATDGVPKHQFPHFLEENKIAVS
Notes: 8-mer, flanks averaged, mean of replicates
GCCGCTAA: -0.26
CACGACCG: -0.338
GTAACGGA: -0.0464
ATAAATCA: 0.333
GCGCTACA: 0.0606
ATGGCAAG: 0.0408

Single results of other studies
PhoQ, residues 284 288 289 292 302 303 ALVSVA  fold induction (PhoP, residues 12 14 15 18 19 HLGGL (Escherichia coli, UniProt P23836); Sort-seq, measured: YFP reporter; E. coli; PhoQ-PhoP variant library, added: 10 µM Mg2+; baseline: high Mg2+ state, higher = stronger signaling): 2.37
